# Results pooled from the literature.
# Every numbered part comes from another study and shows a few of its results, in no order.

# Series 1
# Target: Prothrombin, mature alpha-thrombin (F2, Homo sapiens, UniProt P00734)
# Technique: aptamer microarray, sandwich
# Form: DNA with 2'F-ANA
# Medium: in vitro
# Tested at: 200 nM
# Setting: whole 15-mer aptamer, many near background
# With: Cy3 exosite-II aptamer, 400 nM
# Reading: higher = stronger binding
# Oligonucleotide: GGTTGGTGTGGTTGG
Modification,mean fluorescence intensity
2'F-ANA at 2 3 6 9 11 13 14 15,292 a.u.
2'F-ANA at 1 4 6 7 9 10 12 13,55.2 a.u.
2'F-ANA at 2 3 4 7 9 11 14 15,280 a.u.
2'F-ANA at 4 6 7 8 10 12,126 a.u.
2'F-ANA at 1 5 6 8 9 10 13 14,48.3 a.u.
2'F-ANA at 4 5 6 7 9 11 12 13 14,49.1 a.u.
2'F-ANA at 1 3 9 12 14 15,117 a.u.
2'F-ANA at 2 3 4 9 11 12,765 a.u.
2'F-ANA at 8 9 11 13 14 15,151 a.u.
2'F-ANA at 4 5 8 9 10 11 13 15,111 a.u.
2'F-ANA at 1 5 6 7 10 15,45.9 a.u.
2'F-ANA at 1 2 4 6 7 8 9 10 11 12 14,196 a.u.
2'F-ANA at 2 3 4 5 10 11 12 13 14,75.9 a.u.
2'F-ANA at 1 2 4 5 7 9 10 12 15,90.4 a.u.

# Series 2
# Target: Interferon regulatory factor 7, full length, phosphomimetic (IRF7, Homo sapiens, UniProt Q92985, residues 1-503, S101K/S471D/S472D/S475D/S476D/S477D/S483D/S484D/S487D)
# UniProt Q92985, sequence (whole entry, unmodified, looked up): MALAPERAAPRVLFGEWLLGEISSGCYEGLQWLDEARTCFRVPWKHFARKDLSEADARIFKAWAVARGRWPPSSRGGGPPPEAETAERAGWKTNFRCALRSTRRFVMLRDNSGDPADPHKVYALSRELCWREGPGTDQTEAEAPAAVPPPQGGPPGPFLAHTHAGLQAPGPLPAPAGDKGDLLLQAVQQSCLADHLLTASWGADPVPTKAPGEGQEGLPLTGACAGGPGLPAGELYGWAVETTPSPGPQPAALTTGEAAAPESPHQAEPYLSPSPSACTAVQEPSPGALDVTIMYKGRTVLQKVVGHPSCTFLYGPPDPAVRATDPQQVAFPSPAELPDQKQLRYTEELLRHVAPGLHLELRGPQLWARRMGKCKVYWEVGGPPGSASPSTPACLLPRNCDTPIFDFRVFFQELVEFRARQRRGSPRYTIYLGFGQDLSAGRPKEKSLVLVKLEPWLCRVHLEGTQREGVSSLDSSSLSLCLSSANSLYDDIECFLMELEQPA
# Technique: protein-binding microarray
# Form: double-stranded DNA, one strand shown
# Medium: in vitro
# Tested at: 250 nM
# Setting: 60-bp whole probe
# With: salmon DNA 0.4 mg/ml
# Reference: random background probes
# Reading: higher = stronger binding
# All sequences stand within: GCCTAGCAC … GTCTTGATTCGCTTGACGCTGCTG
Oligonucleotide,log fluorescence
GACGAATTGAGTATCGAGACGTGCTAG,0.000939 z-score
GACGCTTTCGGGACTGGGGACGTGCTA,0.627 z-score
GACGATCTTAGTATCGAGACGTGCTAG,0.162 z-score
GACGAACTGGGGCCTGGAGACGTGCTA,-0.165 z-score
AGAGCTGTCCTTTGCAACAGGTGCTAG,-0.902 z-score
GACGATTTCGGGTTTAGAGACGTGCTA,1.25 z-score
GACGGTATTGACACTGGGGACGTGCTA,-0.34 z-score

# Series 3
# Target: Histone acetyltransferase KAT6A, winged helix 2, GST fusion (KAT6A, Homo sapiens, UniProt Q92794, residues 85-181)
# Technique: protein binding microarray
# Form: double-stranded DNA, one strand shown
# Medium: in vitro
# Tested at: not given
# Setting: 8-mer, flanks averaged, mean of 2 arrays, mostly near background
# Reference: not given
# Reading: higher = stronger binding
# Residues (chain): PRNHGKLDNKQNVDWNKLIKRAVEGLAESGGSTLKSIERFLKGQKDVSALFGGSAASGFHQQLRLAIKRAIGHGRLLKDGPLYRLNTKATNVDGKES
Oligonucleotide,E-score
CCTTATCG,-0.0276
GGATCGAA,0.0781
AGAAACCC,0.0849
ACGGGGTC,-0.0303
CCACCGGA,0.193
AAAGTAGA,-0.0212
ATAACCAG,-0.0242
AAGGTATA,-0.127
CCGATTAG,0.00932
CGGTTTAA,0.0465
CCCTTTAC,-0.168
AGCGGGAA,0.216
GGTCCGAA,0.141

# Further values, each from its own experiment
Substance,target,assay,system,conditions,scale,measurement,value
"PhoQ, residues 284 288 289 292 302 303 ASASEQ","PhoP, residues 12 14 15 18 19 AQCLL (Escherichia coli, UniProt P23836)","Sort-seq, refers to: YFP reporter",E. coli,"PhoQ-PhoP variant library, with: 10 µM Mg2+","reference: high Mg2+ state, higher = stronger signaling",fold induction,4.11

# Some of these lines once more (series 1):
Modification,mean fluorescence intensity
2'F-ANA at 1 3 9 12 14 15,117 a.u.
2'F-ANA at 1 2 4 5 7 9 10 12 15,90.4 a.u.
2'F-ANA at 1 2 4 6 7 8 9 10 11 12 14,196 a.u.
2'F-ANA at 2 3 4 9 11 12,765 a.u.
2'F-ANA at 2 3 6 9 11 13 14 15,292 a.u.
